Published values from different studies.
A part holds a random share of what one study measured.

Sample 1 — method: RNA Bind-n-Seq; form: RNA; matrix: in vitro; concentration: 365 nM; baseline: no-protein control; reading: higher = stronger binding
Target: RNA binding protein fox-1 homolog 2, RRM domain, GST-SBP tag (RBFOX2, Homo sapiens, UniProt O43251-10, residues 100-194)
Notes: natural RNA segment, single round, ends assumed
All sequences stand within: GGGAGUUCUACAGUCCGACGAUC … UGGAAUUCUCGGGUGCCAA
Construct (chain): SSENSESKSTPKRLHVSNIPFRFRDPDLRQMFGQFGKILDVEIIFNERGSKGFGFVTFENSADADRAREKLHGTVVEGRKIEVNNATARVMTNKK
Oligonucleotide	RBNS enrichment (R)
UGCCUCAGGUCCCGAGUAACUUAUGUUCAAUGUGCCAACACCAGUGGGGAGCCCGCAGGCCUAUGUGGCAGCGUCACCACAGGAGUUGUGGGCCUAGGAGAGGCUUUGGA	0.399
CGAAACGCUGGAUCCCCAAGGGUACAGUGUGGCCCAGUCCUCCCCCACCUCCAUGGUGGCCCAGGCUGCAGGGCUCACGGUGGGCCCACGGUGGAGGCCUCAGGCAGCUU	0.215
GCACAGGAAGGUGGAAACAAAAUGCCAGGCCUCUGCUCUGAAGAGCAAAACUGCUGUCGCUGCAGUAUCUGAUACCAGACAUCCACAUAUCCACAAGAAGUGCCUCUUAG	0.394
AAAACGUUUGAUUAUUUUCUCAGUGUAUUUUUGUAAAAAAUAUAUAAAGGGGGUGUUAAUCGGUGUAAAUCGCUGUUUGGAUUUCCUGAUUUUAUAACAGGGCGGCUGGU	0.432
ACCAGAUACCUGGCUUUCCAUGGUGUGAGCAUUCAGACUGAGAUUAGAACCGCAAUGCAGGCUUGGGGAAUUGGCUCAGUCAGAGAAGGCCUUGCUUUGCAAGGAUGGUA	2.99
GGUGUAAGUGACAUGAUGUGGCCAAAAAUCCAAACUGUGCAGUUGCGUUGUGACAAACAUGCAAUGUGCUGUAAAAAUUCAAUACAGUUUAAAUAAAAUCUCUAUAUUAG	0.317
AUUUGUAUAGCAUUUUUACACCUUUAUUGAGUAAUCUGGUUUCGAAAGGAGGUGAGAGUUUAGUCCCUUCUGCAGUUUUCUCCAAGCUGUGUCCUGUGAAUUUCAACCCU	0.565
GUCCAGGGAAGAAGCCACCUCAAGACAUAUGAGGGGUGCCCUGGGCUAAUGUUAGGGCUUAAUUUUCUCAAAGCCUGACCUUUCAAAUCCAUGAUGAAUGCCAUCAGUCC	0.511
GAAUGCUGCUGUGUCUGUCAUGUGUGCACUCCUCGCCCCUCCUCGCUUUGCUAACCAAAGAACAUAUAUUUUACUGUCCAUUUCCUCAGCUCCCCAGUCCGAGUAGCAUU	8.22
GAACUGAUUUUAAUAAAAAUAUUCUGUGUAAAAAGUACUCAGAAAAACAUCUAAAGCUGUUGGAGAAGAGGGACUCAUAUAAAUAGUUGGAUUGCGUUUUGCUUUUUAUU	1.44
CUGAGACCUGCAAUGAGACCACCAAGCUUGGGGACUUUGUUCGAUACCAUUACAACUGUUCUUUGCUGGACGGCACCCAGCUGUUCACCUCGCAUGACUACGGGGCCCCC	2.39
GUUUAUUUUUUCCCCACAGACGCACACACCAACACAUUUAUAUUCAUUGCUUCCUCCCACUUUGUGCUCUGUAAAAGAGCUACAGCUGGCAAGAUGUUUUUUCGGCCCUU	1.55

Sample 2 — method: RNAcompete; form: RNA; matrix: in vitro; concentration: 20 nM; notes: 7-mer, probes averaged, single round; baseline: mean of 7-mers; reading: higher = stronger binding
Target: PABPC1L2, full length, GST fusion (mouse, UniProt A0ABA7IW68)
Target sequence (chain): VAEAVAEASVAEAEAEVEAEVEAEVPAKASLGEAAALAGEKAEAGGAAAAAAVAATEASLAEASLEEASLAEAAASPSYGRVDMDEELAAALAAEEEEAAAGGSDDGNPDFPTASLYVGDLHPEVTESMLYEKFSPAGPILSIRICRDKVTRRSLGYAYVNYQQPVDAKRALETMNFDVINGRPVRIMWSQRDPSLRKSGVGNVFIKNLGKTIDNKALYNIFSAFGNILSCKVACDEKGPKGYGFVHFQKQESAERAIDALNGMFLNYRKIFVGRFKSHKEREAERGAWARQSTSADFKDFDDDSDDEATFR
Oligonucleotide	7-mer Z-score
AGGGGCG	0.486
AGUAGGG	0.126
ACUCUGA	-0.204
AUUGCAA	0.0442
UUUCUCC	-0.347
GAAUCUA	-0.132
CAAGGUA	0.066
UCCCUAG	-0.233
AGCGCAA	-0.00289
CUGCUGC	-0.162
UAUGAUG	0.0605
UCACGGA	-0.0917
CUACGUA	-0.233
GGGGGUC	0.497
AAACGGG	1.01
UUACUUA	-0.182

Sample 3 — method: RNA Bind-n-Seq; form: RNA; matrix: in vitro; concentration: 20 nM; notes: 6-mer, flanks averaged, single round; with: 150 mM KCl; baseline: input library; reading: higher = stronger binding
Target: TAR DNA-binding protein 43, full length, His tag (TARDBP, Homo sapiens, UniProt Q13148, residues 1-414)
Oligonucleotide	6-mer enrichment (R)
CAAAAU	0.631
AACAAA	0.734
ACUACC	0.589
AACACC	0.66
CCUCGG	0.871
UUAGUC	0.577
UCUCAC	0.545
CCAACU	0.615
ACAAGU	0.693
UCUUUG	0.63
ACCAUA	0.623
ACUAUU	0.597
CUGAGA	0.797
UGUCAU	0.611
AUACCU	0.574
UUGCGC	0.791
UCGUCG	0.777
GUGGCA	1.55
UUUCUC	0.577
CUAUCG	0.608
UCUUAG	0.601
GGGCGA	3.91
CCAUGA	0.667

Sample 4 — method: protein binding microarray; form: double-stranded DNA, one strand shown; matrix: in vitro; concentration: not given; baseline: not given; reading: higher = stronger binding
Target: Histone acetyltransferase KAT6A, winged helix 2, GST fusion (KAT6A, Homo sapiens, UniProt Q92794, residues 85-181)
Notes: 8-mer, flanks averaged, mean of 2 arrays, mostly near background
Construct (chain): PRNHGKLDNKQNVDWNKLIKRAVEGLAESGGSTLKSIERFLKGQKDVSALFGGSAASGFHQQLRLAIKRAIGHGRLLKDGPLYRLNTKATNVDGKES
Oligonucleotide	E-score
CTTGCCCA	0.0378
ACTCAGCA	0.0298
CACATGCA	-0.00269
ACTCACGA	0.0913
CTCGGGCA	0.225
CAAGCGTA	0.0255
GAACTCTA	-0.00314
AGGCCCCG	-0.0107
ACCGGACG	0.181
ACGGCCGG	0.181
TCGGCCGA	0.12
CGGCCGGC	0.288
CCACAGCG	0.206
GACCGTGA	-0.121
CCCGTCAG	-0.073
GAACTCAC	0.0945
AGGAGGCC	-0.112
AACCTTAA	0.0114
CCACACAC	0.0893
CACTAGAC	-0.205
TTAATTAA	0.0785
ATGCCATC	0.0987
ATGGCAGA	0.0724
CTGACCGC	0.175
AACGGGAG	0.0682

Sample 5 — method: RNA Bind-n-Seq; form: RNA; matrix: in vitro; concentration: 200 nM; notes: whole 134-nt RNA, ends assumed; with: 150 mM LiCl; baseline: input library; reading: higher = stronger binding; each molecule: 7-deaza-guanosine replaces G
Target: Fragile X messenger ribonucleoprotein 1, C-terminal low-complexity region (Fmr1, Mus musculus, UniProt P35922)
All sequences stand within: GGGAGUUCUACAGUCCGACGAUC … UGGAAUUCUCGGGUGUCAAGG
Oligonucleotide	log2 enrichment
GUCCUGUGCUACACAUCGUAUGUACCGAAUCGGGGUUUUUGGUUUUUGGGUUUUUGGGAAAGUAUUAUGUUACGCCGUUCGGAUCUGCAC	-1.22
AAGUCCUGUGCUACACAUCGUAUGUACCGAAUCGGGAGGGAAAGGGUUUUUUUGGGAAAGUAUUAUGUUACGCCGUUCGGAUCUGCACUU	-1.39
CCUGUGCUACACAUCGUAUGUACCGAAUCGGCCCCCCCGGGGCCCCCCCGGCCCCCCCGGGAAAGUAUUAUGUUACGCCGUUCGGAUCUG	-0.555
AGUCCUGUGCUACACAUCGUAUGUACCGAAUCGGGAAAAGGGGAAAAGGGGAAAAGGGAAAGUAUUAUGUUACGCCGUUCGGAUCUGCAC	-0.105
UCCUCAAGUCCUGUGCUACACAUCGUAUGUACCGAAUCGGAGGAGGGAGGGGAAAGUAUUAUGUUACGCCGUUCGGAUCUGCACUUCCAG	-0.994
ACCAUGCAGGUGGGCAUCUUUGGGAAGUGGGGCAAGGGGGGGAUGGGGAGGGGGGUAACACUUUGGGAACAGGUGGUCCCAGGUCGUUUC	1.45
GCAGGAAGUAAAAACAAAUGGAAAUGCUUCGGAUAGUGGCAGGGGUGGGGCUUGCUAAGGAAAGGGUGGGAUGGGAGUGGGUAAAGAGUU	0.889
AACUAAUACUCUUAAAUGGUCUUUCAGUAUAGUGGUUCUUACGUAGUUUAACAUAGCUAUAAAUUGAGUUUAACAAUUUAUAAACUCAAG	0.473
UGGCCCUGGUGGCAUGCGGGGAGGAAGAGGUGGCCUCAUGGAUCGGGGUGGUCCCGGUGGAAUGUUCAGAGGUGGCCGUGGUGGAGACAG	-0.692
ACCAUGCAGGUGGGCAUCUUUGGGAAGUGGGGCAAGGGGGGGAUAGGGAGGGGGGUAACACUUUGGGAACAGGUGGUCCCAGGUCGUUCC	0.968
UGGCCCUGGUGGCAUGCGGGGAGGAAGAGGUGGCCUCAUGGAUCGUGGUGGUCCCGGUGCAAUGUUCAGAGGUGGCCGUGGUGGAGACAG	-0.905

Sample 6 — method: protein-binding microarray; form: double-stranded DNA, one strand shown; matrix: in vitro; concentration: not given; reading: higher = stronger binding
Target: Max dimerization protein 1, bHLH-zipper, MAX partner unstated (MXD1, Homo sapiens, UniProt Q05195, residues 56-136)
Notes: k-mer, scored over probes, only values ≥0.25
Residues (chain): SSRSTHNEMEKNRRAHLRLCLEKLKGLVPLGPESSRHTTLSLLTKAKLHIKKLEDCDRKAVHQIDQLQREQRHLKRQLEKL
Oligonucleotide	E-score
ACGTGTGG	0.419
GCGGGGCA	0.306
ATATGCAC	0.251
CATGCTGG	0.419
CGTGCTGA	0.303
GCATATGC	0.341
CGTGTTTA	0.324
CACACTCC	0.253
CATGCTAA	0.259
CATGTATC	0.286
ACATGGAA	0.354
GCATGACC	0.31
GCCACCCC	0.251
GCCACACC	0.262
CACGACCA	0.288
ACGTGTAT	0.414
CACCGTGC	0.273
CACGGGGC	0.321
CAACGAGG	0.267
ACGTGGCT	0.389
CCGCCCCG	0.335
ACCATGCG	0.465
CATGCGCA	0.361

Repeated from above (sample 3):
Oligonucleotide	6-mer enrichment (R)
UUUCUC	0.577
CUAUCG	0.608
GGGCGA	3.91
AACAAA	0.734
ACCAUA	0.623
CAAAAU	0.631
ACAAGU	0.693
UUAGUC	0.577
ACUAUU	0.597
CCAUGA	0.667
AACACC	0.66
CUGAGA	0.797
UCUCAC	0.545
ACUACC	0.589
CCAACU	0.615
AUACCU	0.574
UUGCGC	0.791
UCUUAG	0.601
